Experimental data pooled from the literature.
Numbered parts are unrelated; each lists some results of a single study.

Study 1
Target: Interferon regulatory factor 5, full length, phosphomimetic (IRF5, Homo sapiens, UniProt Q13568-2, residues 1-514, K96S/S451D/S453D/S456D/S462D)
Method: protein-binding microarray
Form: double-stranded DNA, one strand shown
Matrix: in vitro
Concentration: 250 nM
Setting: 60-bp whole probe
Together with: salmon DNA 0.4 mg/ml
Relative to: random background probes
Reading: higher = stronger binding
Shared flanks, not repeated: GCCTAGCAC … GTCTTGATTCGCTTGACGCTGCTG
| Strand | log fluorescence [z-score] |
| --- | --- |
| TAAGATTTCAGACTGGATTAGTGCTAG | 0.339 |
| TTAGATATCGGTTTTCGATTAGTGCTA | 7.76 |
| GACGGTATCGGACTGGGGATGTGCTAG | 0.912 |
| TTAGGTTTCCTTTTCCTCTAGTGCTAG | 1.63 |
| TAGGCTCCAGGTTCTCTGAAGGTGCTA | -0.81 |
| ATATGTGTATATATAATATAGTGCTAG | 0.589 |
| GAGGGACTGGACACTGGGGACGTGCTA | -0.458 |
| CTAGCTTCCATTTTCTGAACGTGCTAG | 0.719 |
| GTAGATTTCGGGTATCGATTAGTGCTA | 7.44 |
| TTAGGTTTCGGTGCCGGTTAGTGCTAG | 9.49 |
| TTAGGTATCCTTATCCTTTCGTGCTAG | 0.777 |
| TTAGGTTTCCTTCTCGTTTAGTGCTAG | 1.1 |
| GCAAGAACAGCTGGTGGGCAGTGCTAG | -0.634 |
| CTTTCTTTTATGCTCTTTCTGTGCTAG | 2.88 |
| TTAGGACTGGCGACTGGGTTAGTGCTA | -0.542 |
| GTAAAATTATTCTGTATATTGTGCTAG | 0.645 |
| GACGATATCAGTATCGGGACGTGCTAG | 3.06 |
| TCAACACTCTTCTTTTGCACTGTGCTA | 0.692 |
| GACGATTTCAGTTTCGCGACGTGCTAG | 3.08 |
| TAAGGTTTCGGGTTTCGGTTAGTGCTA | 9.39 |
| CCAGCTCTGATGTTGGGAAAGTGCTAG | -0.486 |
| TGGTGTCTCTGGCCTGGGTCGGTGCTA | -0.295 |
| GACGGTCTCCTTCTGCTGACGTGCTAG | -0.091 |
| GACGGACTGGGTATCGGGACGTGCTAG | 0.171 |
| GACGCACTGCTTCTCCTGACGTGCTAG | -0.294 |

Study 2
Target: Ras GTPase-activating protein-binding protein 1, C-terminal RGG region (G3BP1, Homo sapiens, UniProt Q13283)
Sequence of UniProt Q13283 (whole entry, looked up): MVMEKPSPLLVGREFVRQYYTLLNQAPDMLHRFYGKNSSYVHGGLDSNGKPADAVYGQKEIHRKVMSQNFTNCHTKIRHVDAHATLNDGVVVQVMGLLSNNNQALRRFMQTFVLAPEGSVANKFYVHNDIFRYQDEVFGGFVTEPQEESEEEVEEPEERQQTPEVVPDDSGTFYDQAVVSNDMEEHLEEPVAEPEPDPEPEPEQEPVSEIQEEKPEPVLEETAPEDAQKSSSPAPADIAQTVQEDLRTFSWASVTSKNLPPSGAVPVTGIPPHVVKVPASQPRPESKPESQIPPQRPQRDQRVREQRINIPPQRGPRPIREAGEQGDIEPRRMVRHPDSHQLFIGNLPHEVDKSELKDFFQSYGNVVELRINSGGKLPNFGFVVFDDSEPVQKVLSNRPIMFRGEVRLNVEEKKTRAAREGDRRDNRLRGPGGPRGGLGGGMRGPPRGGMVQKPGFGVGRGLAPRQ
Method: RNA Bind-n-Seq
Form: RNA
Matrix: in vitro
Concentration: 1 µM
Setting: whole 134-nt RNA, ends assumed
Together with: 150 mM KCl
Relative to: input library
Reading: higher = stronger binding
Shared flanks, not repeated: GGGAGUUCUACAGUCCGACGAUC … UGGAAUUCUCGGGUGUCAAGG
| Strand | log2 enrichment |
| --- | --- |
| AGUCCUGUGCUACACAUCGUAUGUACCGAAUCGGGGUGGGGAAAAAGGGGUUUGGGGAAAGUAUUAUGUUACGCCGUUCGGAUCUGCACU | 1.85 |
| CAAGUCCUGUGCUACACAUCGUAUGUACCGAAUCGGAAAAGGAAAAGGGAAAAGGGAAAGUAUUAUGUUACGCCGUUCGGAUCUGCACUU | -2 |
| ACCAUGCAGGUGGGCAUCUUUGGCAAGUGGGGCAAGGGGGGGAUAGGGAGGGGGGUAACACUUUGGGAACAGGUGGUCCCAGGUCGUUUC | -1.05 |
| UAACUUUAGAGGAGGAUCUGAUGGAUAUGGCAGUGGACGUGGAUUUGGGGAUGGCUAUAAUGGGUAUGGAGGAGGACCUGGAGGUGGCGA | -1.14 |
| CAAGUCCUGUGCUACACAUCGUAUGUACCGAAUCGGGUUUGGUUUGGGGUUUGGGAAAGUAUUAUGUUACGCCGUUCGGAUCUGCACUUC | 0.0851 |
| UGUGCUACACAUCGUAUGUACCGAAUCGGGGUUUUUUUGGUUUUUUUGGGGUUUUUUUGGGGAAAGUAUUAUGUUACGCCGUUCGGAUCU | -1.22 |
| GUCCUGUGCUACACAUCGUAUGUACCGAAUCGGAAAAAAAGGUUUUUGGAAAAAAAGGAAAGUAUUAUGUUACGCCGUUCGGAUCUGCAC | -2.01 |
| CUGUGCUACACAUCGUAUGUACCGAAUCGGGGUUUUUUUGGUUUUUUUGGGUUUUUUUGGGGAAAGUAUUAUGUUACGCCGUUCGGAUCU | -1.42 |
| GCAGGAAGUAAAAACAAAUGGAAAUUCUUCGGAUAGUGGCAGGGGUGGGGGUUGCUAAGGAAAGGGUGGGAUGGGAGUGGGUAAAGAGUU | 1.62 |
| UCCUCAAGUCCUGUGCUACACAUCGUAUGUACCGAAUCGGAGGGAGGGAGGAAAGUAUUAUGUUACGCCGUUCGGAUCUGCACUUCCAGC | -1.01 |
| UGGCCCUGGUGGCAUGCGGGGAGGAAGAGGUGGCCUCAUGGAUCGUGGUGGUCCCGGUGGAAUGUUCAGAGGUGGCCAUGGUGGAGACAG | 2.67 |
| UCAAGUCCUGUGCUACACAUCGUAUGUACCGAAUCGGAAAAAGGUUUUUGGUGGAAAGUAUUAUGUUACGCCGUUCGGAUCUGCACUUCC | -1.29 |
| CUGUGCUACACAUCGUAUGUACCGAAUCGGGGUUUUUUUGGGGUUUUUUUGGGGAAAGGGGAAAGUAUUAUGUUACGCCGUUCGGAUCUG | -0.222 |
| UGGAAUAAGCCUGGUGCUUUCUGGCUAUGUUUGUCAUAGGCUGACCUGGAUAUCACCGAAAUAAACAAACUAACAGCAGAAGCUAUUCAG | -1.23 |

Study 3
Target: RNA binding protein fox-1 homolog 2, RRM domain, GST-SBP tag (RBFOX2, Homo sapiens, UniProt O43251-10, residues 100-194)
Method: RNA Bind-n-Seq
Form: RNA
Matrix: in vitro
Concentration: 365 nM
Setting: natural RNA segment, single round, ends assumed
Relative to: no-protein control
Reading: higher = stronger binding
Shared flanks, not repeated: GGGAGUUCUACAGUCCGACGAUC … UGGAAUUCUCGGGUGCCAA
Construct (chain): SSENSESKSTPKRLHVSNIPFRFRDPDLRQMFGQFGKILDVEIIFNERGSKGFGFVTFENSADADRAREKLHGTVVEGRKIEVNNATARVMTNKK
| Strand | RBNS enrichment (R) |
| --- | --- |
| AGCGCGCGCGGCUGAUGGACAUCGUCGAGGACCGACAUAGACCCGAUGCCAAGACCUUAGCCCCAAGGGGAGAUUUCCAAACUCUUAAAAAUGAAGGCUCCCAUGAGUCU | 0.798 |
| UGUUUUAGUGGGGAUAGUACCAUAUGUGAUAUAACCUAGAAGCACUUGUCUCUGCUCUUAUGAAACUUGCUUAUUCUUGAAAACCUUCUGCAUUUCCAUUUUUUCCUCUC | 0.403 |
| AAAGAAUGAUAGGCUUGUCAGAGCCUAUAGCCAGAACUCAGAAAAAAUUCAAAUGCACUUAUGUUCUCAUUCUAUGGCCAUUGUGUUGCCUCUGUUACUGUUUGUAUUGA | 0.699 |
| UGGCAUUUUUUUAUCUGUAUACUUUUUGAUGUGGUUGAUUGUUUUUAACAUGCUAAAAGUAAUCCGUGUAUUUUGUUCUGUGUCUUCUGUGUGCAGCUUCCCCGUGGCAA | 0.587 |
| AGACGCUGUUUUCACCCCUUCCUCCUCCUAGCCUCUCUCCCAAAAAGUAAAACACAAUGCUGAAGAAUAUUGGUGUGACUUUUGAAUGUUACCGAUUGGAUGUAAAAUGC | 1.27 |
| GCAGGUCAGGUUAAUGGAAGAACGAGUCUGGUGGUAUAGCGUGGUUUGAGAGAUGUCUUUCAGUUUUCUUUUCCUGCAUCAUACCUGGAAUGCAUGCAGCCUGCUGUUGG | 25.5 |
| AUUGUGUGUGCGUGCGUGUGUGAUGUCAGGCUGCCACGUAAAACUUCAGAGAAAAAUCUUAAAAGCAGACCAUCCUUUUUUGCAUGCUCUAUUCUAAGUAGAAUGUUCAA | 9.66 |
| AGGACAUGAGCCUGUCUAGUGUUUCCUAGGAAAGGGAUAGUUUUCUGUUGGUAUAGCAUUUUCUAAGGAAACUACUCACUCAGCGCCUACCCUUUGUUAGAAGUGUUGAC | 0.445 |
| UUUUUACUUUUUUAAUGUAAGUCUCAGUCUUUGUAAUUAAUUAUUGAAUUGUGAGAACAUUUUUGAACAAUUUACCUGUCAAUAAAGCAGAAGACGGCAGUUUUAAAGUU | 0.385 |
| UCCUAUCCAACCGUACUAACGUGGACACCCUACACCUCCCCUCAGAACUUCAAAAGGGCAAGAUCUUUUUUCCUUCACUUAUUGCUGAAACCAAGAGCACAAUUCCCAUU | 0.43 |
| GUGGUACCAGCUGUGACUUUUCUAUUUCUCCUAGUUUUAGGUUGUUCAUGAAACUAGAAAUGUCAUCCUGCUUGAUUUUUCAUCAGCCAAGUUAAACCCCUGCUUUCUGU | 0.341 |
| CUAUCACUUGAGAACCUCCUCAGCAAAGAUGCCAGAAAACAUUCAAUCAAGUUGGCAAAUGACACAGGGAGCUGGCCCUCUGACCAUCUUCCUGGCAAACCUGGACUGGA | 0.221 |

Study 4
Target: Histone acetyltransferase KAT6A, both winged helices, GST fusion (KAT6A, Homo sapiens, UniProt Q92794, residues 1-181)
Method: protein binding microarray
Form: double-stranded DNA, one strand shown
Matrix: in vitro
Concentration: not given
Setting: 8-mer, flanks averaged, mean of 2 arrays, mostly near background
Relative to: not given
Reading: higher = stronger binding
Residues (chain): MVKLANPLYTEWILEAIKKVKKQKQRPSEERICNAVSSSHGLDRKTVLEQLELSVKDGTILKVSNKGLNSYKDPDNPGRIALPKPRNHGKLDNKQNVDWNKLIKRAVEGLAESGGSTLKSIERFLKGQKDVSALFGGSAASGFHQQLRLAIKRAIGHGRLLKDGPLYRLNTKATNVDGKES
| Strand | E-score |
| --- | --- |
| GACAGTAA | -0.129 |
| AGTCTTAA | -0.0246 |
| ATTGGATA | -0.0474 |
| CGGGACTC | 0.215 |
| AATCGCGA | 0.155 |
| GTTCGCAA | 0.142 |
| GCTAGAAC | 0.0378 |
| AAGTAGCG | 0.0887 |
| CACGTTCA | 0.0224 |
| TTCACGAA | 0.0559 |
| GGTCTGTA | -0.037 |
| ATCTCCCC | -0.203 |
| CTCGGGAA | 0.118 |
| ACACTCCA | -0.096 |
| ACCGGGTA | 0.165 |
| TCCAAGAA | -0.0179 |
| ATGGGGGG | -0.297 |
| ACGCGAAC | 0.183 |
| ATTACTGA | -0.133 |
| ACCTAAGC | -0.0814 |
| GACGGCAA | 0.284 |
| AGAAGTGC | -0.136 |
| ATCAAGAG | -0.127 |
| ACATTGAA | -0.049 |
| CACAACTG | -0.0632 |

A few entries again (study 4):
| Strand | E-score |
| --- | --- |
| TCCAAGAA | -0.0179 |
| GTTCGCAA | 0.142 |
| ACATTGAA | -0.049 |
| ATTGGATA | -0.0474 |
| GACGGCAA | 0.284 |
| GGTCTGTA | -0.037 |
| AAGTAGCG | 0.0887 |
